Published values of several laboratories.
Lines come from different studies, so protocols differ. Numbers after ± are the reported error.
OPRL1: Nociceptin receptor (OPRL1, Homo sapiens, UniProt P41146)
Scn4a: Sodium channel protein type 4 subunit alpha (Scn4a, Rattus norvegicus, UniProt P15390)
Secreted effector protein C403A/D356A: Secreted effector protein (Yersinia pestis, UniProt O68720, C403A/D356A)
PTPN3: Tyrosine-protein phosphatase non-receptor type 3 (PTPN3, Homo sapiens, UniProt P26045)

By UniProt entry, the sequences of proteins in these tests, tags left out. Chains listed by the source or under a name are the forms on record and can include a tag or linker. Residues count along the entry.
UniProt P41146, whole entry: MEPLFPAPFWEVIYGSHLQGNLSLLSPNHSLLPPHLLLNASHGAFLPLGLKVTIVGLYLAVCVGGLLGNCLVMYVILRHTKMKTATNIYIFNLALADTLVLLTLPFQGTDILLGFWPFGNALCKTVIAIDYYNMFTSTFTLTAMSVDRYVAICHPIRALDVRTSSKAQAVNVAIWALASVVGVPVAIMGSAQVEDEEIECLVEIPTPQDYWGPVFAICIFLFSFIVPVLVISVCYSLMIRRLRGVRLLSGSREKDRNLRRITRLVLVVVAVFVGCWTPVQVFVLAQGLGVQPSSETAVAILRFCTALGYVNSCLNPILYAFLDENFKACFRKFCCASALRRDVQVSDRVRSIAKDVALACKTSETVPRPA
UniProt P15390, whole entry: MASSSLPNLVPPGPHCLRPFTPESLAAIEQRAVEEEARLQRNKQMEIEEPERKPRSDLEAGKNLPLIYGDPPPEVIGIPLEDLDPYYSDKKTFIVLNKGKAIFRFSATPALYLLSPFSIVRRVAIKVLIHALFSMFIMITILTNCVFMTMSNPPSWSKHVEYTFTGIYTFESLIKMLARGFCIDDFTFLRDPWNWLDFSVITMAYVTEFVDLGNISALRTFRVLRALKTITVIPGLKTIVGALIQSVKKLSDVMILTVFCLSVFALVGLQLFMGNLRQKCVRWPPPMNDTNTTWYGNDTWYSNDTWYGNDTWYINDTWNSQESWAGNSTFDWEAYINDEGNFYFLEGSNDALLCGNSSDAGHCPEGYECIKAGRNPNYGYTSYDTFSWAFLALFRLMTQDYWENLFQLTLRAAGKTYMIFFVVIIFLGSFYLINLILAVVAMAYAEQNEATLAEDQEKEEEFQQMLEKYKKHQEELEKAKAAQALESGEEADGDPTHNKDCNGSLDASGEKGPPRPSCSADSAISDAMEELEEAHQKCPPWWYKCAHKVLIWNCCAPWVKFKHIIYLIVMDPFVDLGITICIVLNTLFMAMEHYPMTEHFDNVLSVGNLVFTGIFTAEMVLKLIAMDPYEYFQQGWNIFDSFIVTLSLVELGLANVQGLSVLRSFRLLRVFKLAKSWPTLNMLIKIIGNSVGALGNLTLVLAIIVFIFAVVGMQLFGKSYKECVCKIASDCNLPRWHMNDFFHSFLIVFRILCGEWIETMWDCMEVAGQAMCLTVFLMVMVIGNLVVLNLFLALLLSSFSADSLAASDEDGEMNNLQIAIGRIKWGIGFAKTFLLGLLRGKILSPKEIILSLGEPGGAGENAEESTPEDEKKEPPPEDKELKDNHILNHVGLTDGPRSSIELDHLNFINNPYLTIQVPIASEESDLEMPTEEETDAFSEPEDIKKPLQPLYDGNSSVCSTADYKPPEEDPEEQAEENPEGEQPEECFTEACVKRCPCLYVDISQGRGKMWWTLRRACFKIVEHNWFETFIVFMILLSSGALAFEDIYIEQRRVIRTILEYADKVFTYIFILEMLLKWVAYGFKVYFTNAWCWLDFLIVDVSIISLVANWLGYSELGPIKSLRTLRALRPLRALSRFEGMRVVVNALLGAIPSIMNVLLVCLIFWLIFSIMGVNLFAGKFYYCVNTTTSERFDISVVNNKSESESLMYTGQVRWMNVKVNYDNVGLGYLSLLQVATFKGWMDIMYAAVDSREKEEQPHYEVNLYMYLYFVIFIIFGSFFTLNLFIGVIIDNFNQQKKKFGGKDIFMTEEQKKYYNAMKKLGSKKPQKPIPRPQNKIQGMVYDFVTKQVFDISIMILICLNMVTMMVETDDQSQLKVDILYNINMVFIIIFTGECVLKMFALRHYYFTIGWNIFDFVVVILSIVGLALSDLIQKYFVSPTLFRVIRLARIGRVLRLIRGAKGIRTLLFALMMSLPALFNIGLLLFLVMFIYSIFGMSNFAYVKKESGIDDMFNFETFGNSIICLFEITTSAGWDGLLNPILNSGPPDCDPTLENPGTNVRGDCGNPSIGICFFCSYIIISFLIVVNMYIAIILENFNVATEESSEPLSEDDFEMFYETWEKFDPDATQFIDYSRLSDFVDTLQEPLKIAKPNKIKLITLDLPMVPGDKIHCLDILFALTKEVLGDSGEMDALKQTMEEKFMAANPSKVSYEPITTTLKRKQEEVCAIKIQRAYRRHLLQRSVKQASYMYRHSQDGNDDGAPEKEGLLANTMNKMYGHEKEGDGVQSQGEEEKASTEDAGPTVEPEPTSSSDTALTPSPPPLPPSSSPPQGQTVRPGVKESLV
UniProt P26045, 646-901 limits assumed: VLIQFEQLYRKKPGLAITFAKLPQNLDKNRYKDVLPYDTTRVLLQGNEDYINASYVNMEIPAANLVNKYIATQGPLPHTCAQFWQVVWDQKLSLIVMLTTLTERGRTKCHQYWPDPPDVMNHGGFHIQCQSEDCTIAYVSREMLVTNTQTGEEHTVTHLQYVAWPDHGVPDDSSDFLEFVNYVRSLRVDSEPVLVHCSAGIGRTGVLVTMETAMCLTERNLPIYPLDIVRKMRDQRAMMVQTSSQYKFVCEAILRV
UniProt O42275, whole entry, looked up: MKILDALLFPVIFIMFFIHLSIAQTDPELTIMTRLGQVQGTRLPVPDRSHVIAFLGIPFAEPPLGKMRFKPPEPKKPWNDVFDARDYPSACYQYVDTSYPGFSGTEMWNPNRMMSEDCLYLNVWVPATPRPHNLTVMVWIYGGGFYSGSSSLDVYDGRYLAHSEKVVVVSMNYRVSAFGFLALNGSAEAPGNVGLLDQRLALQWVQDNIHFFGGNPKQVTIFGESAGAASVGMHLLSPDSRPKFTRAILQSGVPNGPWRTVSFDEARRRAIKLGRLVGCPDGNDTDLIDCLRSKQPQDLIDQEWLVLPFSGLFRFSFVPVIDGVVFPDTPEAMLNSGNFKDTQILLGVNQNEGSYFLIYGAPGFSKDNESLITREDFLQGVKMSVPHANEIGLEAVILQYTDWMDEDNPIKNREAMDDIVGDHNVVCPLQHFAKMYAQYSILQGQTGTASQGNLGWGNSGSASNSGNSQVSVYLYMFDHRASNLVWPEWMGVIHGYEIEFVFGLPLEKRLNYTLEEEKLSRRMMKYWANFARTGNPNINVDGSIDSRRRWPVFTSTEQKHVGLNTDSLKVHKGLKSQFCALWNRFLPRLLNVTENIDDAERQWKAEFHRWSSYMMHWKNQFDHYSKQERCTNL
UniProt Q8WSF8, 18-236 limits assumed: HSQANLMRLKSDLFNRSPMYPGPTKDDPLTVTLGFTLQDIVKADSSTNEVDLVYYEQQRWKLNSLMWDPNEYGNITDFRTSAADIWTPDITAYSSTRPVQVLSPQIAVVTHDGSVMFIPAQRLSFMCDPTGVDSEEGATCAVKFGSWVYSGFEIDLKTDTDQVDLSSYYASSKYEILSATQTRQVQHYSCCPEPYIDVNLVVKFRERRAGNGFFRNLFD
UniProt P08510, 1-655 with tags or gaps DEL6-46: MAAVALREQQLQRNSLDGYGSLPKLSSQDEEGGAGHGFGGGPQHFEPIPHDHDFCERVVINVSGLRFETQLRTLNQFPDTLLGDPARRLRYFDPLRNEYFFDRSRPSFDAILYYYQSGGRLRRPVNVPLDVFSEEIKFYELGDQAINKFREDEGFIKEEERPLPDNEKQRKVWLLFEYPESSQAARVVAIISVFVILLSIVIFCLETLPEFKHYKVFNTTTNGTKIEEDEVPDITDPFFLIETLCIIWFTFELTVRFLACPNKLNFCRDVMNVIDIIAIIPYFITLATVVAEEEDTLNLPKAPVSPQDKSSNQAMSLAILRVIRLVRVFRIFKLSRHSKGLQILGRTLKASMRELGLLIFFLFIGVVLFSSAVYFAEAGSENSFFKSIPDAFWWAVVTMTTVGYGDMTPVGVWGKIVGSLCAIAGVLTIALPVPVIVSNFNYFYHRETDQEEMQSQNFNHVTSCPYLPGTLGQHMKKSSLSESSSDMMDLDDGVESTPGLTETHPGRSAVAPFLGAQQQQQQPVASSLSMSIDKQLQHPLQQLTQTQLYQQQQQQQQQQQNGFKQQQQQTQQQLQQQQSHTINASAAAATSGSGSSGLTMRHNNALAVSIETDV
UniProt Q9Y6W6, 321-464 limits assumed: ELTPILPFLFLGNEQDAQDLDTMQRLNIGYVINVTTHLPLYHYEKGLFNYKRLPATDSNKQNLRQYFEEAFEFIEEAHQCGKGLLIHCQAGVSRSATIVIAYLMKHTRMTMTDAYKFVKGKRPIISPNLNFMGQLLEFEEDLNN
UniProt P08104, whole entry: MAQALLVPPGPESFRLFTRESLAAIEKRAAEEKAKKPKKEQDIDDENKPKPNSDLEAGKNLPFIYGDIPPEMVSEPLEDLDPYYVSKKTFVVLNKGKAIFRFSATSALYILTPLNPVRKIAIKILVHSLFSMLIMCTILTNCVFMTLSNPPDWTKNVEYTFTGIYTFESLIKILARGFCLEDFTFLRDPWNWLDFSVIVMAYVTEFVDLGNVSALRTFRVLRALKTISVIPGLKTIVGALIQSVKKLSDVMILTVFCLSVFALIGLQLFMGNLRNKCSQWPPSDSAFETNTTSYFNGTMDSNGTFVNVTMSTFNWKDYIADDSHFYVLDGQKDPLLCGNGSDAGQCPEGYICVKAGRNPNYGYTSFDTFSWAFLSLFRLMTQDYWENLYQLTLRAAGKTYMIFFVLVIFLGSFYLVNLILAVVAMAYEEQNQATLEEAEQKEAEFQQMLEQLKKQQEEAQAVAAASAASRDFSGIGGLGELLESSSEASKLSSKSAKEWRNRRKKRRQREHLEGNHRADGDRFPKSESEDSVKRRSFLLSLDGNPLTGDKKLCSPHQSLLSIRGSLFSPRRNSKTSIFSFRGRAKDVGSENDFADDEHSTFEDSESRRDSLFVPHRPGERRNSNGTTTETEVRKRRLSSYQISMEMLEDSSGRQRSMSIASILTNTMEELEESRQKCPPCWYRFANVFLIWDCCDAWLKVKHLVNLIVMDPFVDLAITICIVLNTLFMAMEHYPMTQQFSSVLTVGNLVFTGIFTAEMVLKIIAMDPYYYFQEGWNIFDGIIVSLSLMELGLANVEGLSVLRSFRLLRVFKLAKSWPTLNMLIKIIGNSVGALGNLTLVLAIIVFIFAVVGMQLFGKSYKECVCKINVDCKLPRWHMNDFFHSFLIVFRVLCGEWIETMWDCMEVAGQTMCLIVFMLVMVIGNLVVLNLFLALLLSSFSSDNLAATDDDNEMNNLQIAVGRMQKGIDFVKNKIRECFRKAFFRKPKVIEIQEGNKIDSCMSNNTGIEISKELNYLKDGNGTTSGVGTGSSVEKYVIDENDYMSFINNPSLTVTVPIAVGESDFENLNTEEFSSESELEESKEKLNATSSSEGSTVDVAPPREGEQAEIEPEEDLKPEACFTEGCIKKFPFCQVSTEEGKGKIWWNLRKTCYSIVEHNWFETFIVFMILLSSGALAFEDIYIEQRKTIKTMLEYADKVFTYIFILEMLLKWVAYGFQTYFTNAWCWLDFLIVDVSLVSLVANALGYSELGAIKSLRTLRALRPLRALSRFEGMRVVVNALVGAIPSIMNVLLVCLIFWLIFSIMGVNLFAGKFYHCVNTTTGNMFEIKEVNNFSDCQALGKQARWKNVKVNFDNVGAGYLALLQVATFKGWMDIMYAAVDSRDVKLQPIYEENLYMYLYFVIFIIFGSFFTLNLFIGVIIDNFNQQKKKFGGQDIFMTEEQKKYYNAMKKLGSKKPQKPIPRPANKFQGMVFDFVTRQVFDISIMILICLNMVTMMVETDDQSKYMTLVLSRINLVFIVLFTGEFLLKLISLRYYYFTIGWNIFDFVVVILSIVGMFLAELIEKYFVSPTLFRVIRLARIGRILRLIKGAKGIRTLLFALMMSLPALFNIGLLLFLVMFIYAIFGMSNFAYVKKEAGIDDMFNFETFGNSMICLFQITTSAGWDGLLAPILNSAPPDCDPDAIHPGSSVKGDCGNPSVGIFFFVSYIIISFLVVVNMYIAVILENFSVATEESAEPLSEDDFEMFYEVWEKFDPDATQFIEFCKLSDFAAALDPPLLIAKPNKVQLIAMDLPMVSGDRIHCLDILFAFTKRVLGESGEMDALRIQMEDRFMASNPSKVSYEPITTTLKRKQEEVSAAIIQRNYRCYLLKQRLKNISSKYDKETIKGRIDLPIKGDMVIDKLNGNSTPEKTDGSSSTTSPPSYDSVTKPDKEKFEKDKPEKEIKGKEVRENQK
UniProt P62873, whole entry partner: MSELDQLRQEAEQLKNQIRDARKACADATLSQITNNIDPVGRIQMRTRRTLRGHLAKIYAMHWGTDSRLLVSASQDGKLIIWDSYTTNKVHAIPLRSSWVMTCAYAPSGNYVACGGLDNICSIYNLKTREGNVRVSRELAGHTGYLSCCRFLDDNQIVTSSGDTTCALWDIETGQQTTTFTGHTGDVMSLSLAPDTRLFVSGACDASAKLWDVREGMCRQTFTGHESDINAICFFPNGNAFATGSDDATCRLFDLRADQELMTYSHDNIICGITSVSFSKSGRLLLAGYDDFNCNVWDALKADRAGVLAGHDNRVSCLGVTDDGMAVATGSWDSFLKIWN
UniProt P59768, 2-68 partner limits assumed: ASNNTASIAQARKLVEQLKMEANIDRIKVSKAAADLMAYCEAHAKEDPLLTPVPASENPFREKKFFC

| SMILES | target | test | system | setting | how to read | quantity | value |
| --- | --- | --- | --- | --- | --- | --- | --- |
| N#Cc1cn([C@@H]2O[C@H](CSCC[C@H](N)C(=O)O)[C@@H](O)[C@H]2O)c2ncnc(N)c12 | Replicase polyprotein 1ab, nsp16 with nsp10 (rep, Middle East respiratory syndrome-related coronavirus, UniProt K9N7C7) | methyltransferase activity, inhibitor, radiometric nsp10-nsp16 | – | – | – | Hill slope | -0.9 |
| Cc1ccc(S(=O)(=O)Nc2cccc(C(=O)NC3CCN(c4ncnc5[nH]cnc45)CC3)c2)cc1 | Replicase polyprotein 1ab, nsp14 ExoN with nsp10 (rep, Severe acute respiratory syndrome coronavirus 2, UniProt P0DTD1) | ExoN activity | – | 12.5 µM | – | inhibition | 10.5% |
| CC(C)[C@H]1CC[C@@H](N2CCC3(CC2)C(=O)NCN3c2ccccc2)CC1 | OPRL1 | G protein activation, GTPγS binding | CHO membranes | concentration not given, unit not given | reference: compound over N/OFQ Emax | intrinsic activity | 0.88 |
| CS(=O)(=O)C=CCNC(=O)c1ccc2[nH]c(=O)n(C3CC3)c2c1 | Polyprotein P1234, nsP2 protease (Chikungunya virus, UniProt Q5XXP4) | time-dependent inhibition | – | – | – | kinact | 0.0021 ± 0.0002 s⁻¹ |
| C[C@H](NC(=O)[C@@H]1CSSC[C@@H]2NC(=O)[C@H](CCCCN)NC(=O)[C@H](CCCCN)NC(=O)[C@@H]3C[C@@H](O)CN3C(=O)[C@@H]3C[C@@H](O)CN3C(=O)[C@H]([C@@H](C)O)NC(=O)[C@@H]3CSSC[C@H](NC(=O)[C@H](CCCNC(=N)N)NC(=O)[C@H](CCC(N)=O)NC(=O)[C@@H]4C[C@@H](O)CN4C(=O)[C@H](CCCCN)NC(=O)[C@H](CSSC[C@H](NC(=O)[C@H](CC(=O)O)NC(=O)[C@@H](N)CCCNC(=N)N)C(=O)N3)NC(=O)[C@H](CCC(N)=O)NC(=O)[C@H](CCCNC(=N)N)NC(=O)[C@H](CC(=O)O)NC(=O)[C@H](CCCCN)NC2=O)C(=O)N1)C(N)=O | Scn4a | sodium current | Xenopus oocytes | 1 µM | – | inhibition | 98% |
| O=C1Cc2ccccc2N1C1CCN([C@@H]2CC[C@H]3CCCc4cccc2c43)CC1 | OPRL1 | G protein activation, GTPγS binding | CHO membranes | – | reference: compound over N/OFQ EC50 | concentration ratio | 48 |
| CC[C@H](C)[C@H](NC(=O)[C@H](CC(C)C)NC(=O)[C@H](Cc1ccc(OP(=O)(O)O)cc1)NC(=O)[C@H](CCC(=O)O)NC(=O)[C@H](CC(=O)O)NC(=O)[C@H](C)NC(=O)[C@H](CC(=O)O)NC(=O)[C@@H](NC(=O)[C@H](CC(C)C)NC(=O)CCCC[C@@H]1SC[C@@H]2NC(=O)N[C@@H]21)C(C)C)C(=O)N1CCC[C@H]1C(=O)N[C@@H](CCC(N)=O)C(=O)N[C@@H](CCC(N)=O)C(=O)NCC(=O)O | Secreted effector protein C403A/D356A | surface plasmon resonance | – | immobilized protein | – | kon | 88.8 M⁻¹ s⁻¹ |
| O=C(/C=C/c1ccc(O)cc1)/C(C(=O)Nc1ccccc1)=C(O)/C=C/c1ccc(O)cc1 | Lethal factor (Bacillus anthracis, UniProt P15917) | enzyme activity, uncompetitive inhibitor | – | apparent | – | Ki | 19.7 µM |
| CC(=O)N[C@@H](Cc1c[nH]cn1)C(=O)N[C@@H](CC(=O)O)C(=O)NCC(=O)N[C@@H](CC(C)C)C(=O)N[C@@H](Cc1ccc(OP(=O)(O)O)cc1)C(=O)N[C@@H](CCC(N)=O)C(=O)NCC(=O)N[C@@H](CC(C)C)C(=O)N[C@@H](CO)C(=O)N[C@H](C(=O)N[C@@H](C)C(=O)N[C@H](C(=O)N[C@@H](CCCCN)C(=O)N[C@@H](CC(=O)O)C(=O)N[C@H](C(=O)N[C@@H](Cc1cc(=O)oc2cc(OP(=O)(O)O)ccc12)C(=O)N[C@@H](CC(=O)O)C(=O)N[C@@H](C)C(=O)N[C@@H](CC(C)C)C(=O)N[C@@H](Cc1c[nH]cn1)C(N)=O)[C@@H](C)O)[C@@H](C)O)[C@@H](C)O | PTPN3 | substrate | – | pH 6, TCR zeta-chain ITAM peptide | – | kcat/Km | 36000 M⁻¹ s⁻¹ |
| O=C(Nc1ccc2c(c1)C(=O)N(O)C(=O)C2C(=O)NCc1ccc(F)cc1)c1ccccc1 (centres unmarked) | Nucleoprotein, exonuclease domain (N, Lymphocytic choriomeningitis virus, UniProt P09992) | exonuclease activity, inhibitor | – | 20 µM, 30 min | – | inhibition | 95% |
| N[C@@H](Cc1ccc(OP(=O)(O)O)cc1)C(=O)O | Secreted effector protein C403A/D356A | surface plasmon resonance | – | immobilized protein | – | ΔG | -2.73 kcal/mol |
| CN(C)Cc1ccc(OC(=O)N(C)C)c(Cl)c1 | Acetylcholinesterase (ache, Electrophorus electricus, UniProt O42275) | enzyme activity, inhibitor, Ellman | – | 5.5 µM, together with: acetylthiocholine iodide | – | Vmax | 0.072 absorbance units/min |
| C=C1CCCC2=NC[C@H](C)[C@@H](C)C[C@@]23CCC(C(=O)O)=C[C@@H]3[C@@H]2O[C@]3(C[C@H]4CCC[C@@]5(CC[C@@]6(O[C@@H](CC[C@@]6(C)O)C1)O5)O4)C[C@@H](C)[C@@H](O)[C@H]2O3 | Soluble acetylcholine receptor (Aplysia californica, UniProt Q8WSF8) | – | – | – | reference: L-AChBP Kd over Soluble acetylcholine receptor Kd | selectivity ratio | > 3400 fold |
| CC[C@H](C)[C@@H]1NC(=O)[C@H](CCCNC(=N)N)NC(=O)[C@@H](N)CSSC[C@@H]2NC(=O)[C@@H]3CSSC[C@@H](C(=O)N[C@H](C(=O)O)C(C)C)NC(=O)[C@H](CCCCN)NC(=O)[C@H](CC(N)=O)NC(=O)[C@H](Cc4ccccc4)NC(=O)[C@H](CCCNC(=N)N)NC(=O)[C@H](CC(N)=O)NC(=O)[C@H](CSSC[C@H](NC(=O)[C@H](CCCCN)NC(=O)[C@H](CCC(N)=O)NC(=O)[C@H](CC(N)=O)NC(=O)[C@@H]4C[C@@H](O)CN4C1=O)C(=O)N[C@@H](Cc1ccccc1)C(=O)N[C@@H](CCC(N)=O)C(=O)N[C@@H](Cc1c[nH]cn1)C(=O)N[C@@H](CC(C)C)C(=O)N[C@@H](CC(=O)O)C(=O)N[C@@H](CC(=O)O)C(=O)N3)NC(=O)[C@H](CCCCN)NC(=O)[C@H](CCCNC(=N)N)NC(=O)[C@H](CO)NC2=O | Sh (Drosophila melanogaster, UniProt P08510, del6-46) | potassium current, patch clamp, pooled data | – | zero voltage | – | koff | 13 ± 2 s⁻¹ |
| CC(=O)N[C@@H](Cc1c[nH]cn1)C(=O)N[C@H](C(=O)NCC(=O)N[C@@H](Cc1ccccc1)C(=O)N[C@@H](CC(C)C)C(=O)N[C@H](C(=O)N[C@@H](CCC(=O)O)C(=O)N[C@@H](Cc1cc(=O)oc2cc(OP(=O)(O)O)ccc12)C(=O)N[C@H](C(=O)N[C@@H](C)C(=O)N[C@H](C(=O)N[C@@H](CCCNC(=N)N)C(=O)N[C@@H](Cc1c[nH]c2ccccc12)C(N)=O)[C@@H](C)O)C(C)C)[C@@H](C)OP(=O)(O)O)[C@@H](C)O | Dual specificity protein phosphatase 10 (Homo sapiens, UniProt Q9Y6W6) | substrate | – | pH 6, ERK1/2 activation-loop peptide | – | kcat | 0.24 s⁻¹ |
| CC(C)[C@H](N)C(=O)NCC(=O)N[C@@H](CCC(=O)O)C(=O)N[C@@H](CCCNC(=N)N)C(=O)N[C@H]1CSSC[C@@H]2NC(=O)[C@H](Cc3c[nH]c4ccccc34)NC(=O)[C@H](CCCNC(=N)N)NC(=O)CNC(=O)[C@H](CSSC[C@@H](C(N)=O)NC(=O)[C@H](C)NC(=O)[C@H](CCCNC(=N)N)NC(=O)[C@H](CO)NC(=O)[C@H](Cc3c[nH]cn3)NC(=O)[C@H](CC(=O)O)NC(=O)[C@H](CCCNC(=N)N)NC2=O)NC(=O)CNC(=O)[C@H](CCCNC(=N)N)NC(=O)[C@H](CCCCN)NC(=O)CNC(=O)[C@H](CC(N)=O)NC(=O)[C@H](CCCCN)NC(=O)[C@H](C)NC1=O | Sodium channel protein type 3 subunit alpha (Scn3a, Rattus norvegicus, UniProt P08104) | sodium current, two-electrode voltage clamp | – | – | reference: analogue over wild-type µ-conotoxin BuIIIB | Kd ratio | 1.3 |
| O=c1cc(-c2cc(O)c(O)c(S(=O)(=O)O)c2)oc2cc(O)c(S(=O)(=O)O)c(O)c12 | Spike glycoprotein, RBD with ACE2 (Severe acute respiratory syndrome coronavirus 2, UniProt P0DTC2) | spike RAB binding, ratiometric fluorescence imaging | SARS-CoV-2 | 20 µM | – | inhibition | 72% |
| CC(=O)N[C@@H](Cc1c[nH]cn1)C(=O)N[C@@H](CC(=O)O)C(=O)NCC(=O)N[C@@H](CC(C)C)C(=O)N[C@@H](Cc1cc(=O)oc2cc(OP(=O)(O)O)ccc12)C(=O)N[C@@H](CCC(N)=O)C(=O)NCC(=O)N[C@@H](CC(C)C)C(=O)N[C@@H](CO)C(=O)N[C@H](C(=O)N[C@@H](C)C(=O)N[C@H](C(=O)N[C@@H](CCCCN)C(=O)N[C@@H](CC(=O)O)C(=O)N[C@H](C(=O)N[C@@H](Cc1ccc(O)cc1)C(=O)N[C@@H](CC(=O)O)C(=O)N[C@@H](C)C(=O)N[C@@H](CC(C)C)C(=O)N[C@@H](Cc1c[nH]cn1)C(N)=O)[C@@H](C)O)[C@@H](C)O)[C@@H](C)O | PTPN3 | substrate | – | pH 6, TCR zeta-chain ITAM peptide | – | kcat/Km | 81700 M⁻¹ s⁻¹ |
| CNC(=O)CC1C(=O)N(C2CCN([C@H]3CC[C@@H](C(C)C)CC3)CC2)c2ccccc21 (some centres unmarked) | OPRL1 | G protein interaction, BRET | HEK293 membranes | – | reference: compound EC50 over N/OFQ EC50 | potency ratio | 4 |
| C[C@@H]1NC(=O)[C@H](CCCNC(=N)N)NC(=O)[C@H](CO)NC(=O)[C@H](Cc2c[nH]cn2)NC(=O)[C@H](CC(=O)O)NC(=O)[C@H](CCCNC(=N)N)NC(=O)[C@@H]2CSSC[C@H](N)C(=O)N[C@@H](C)C(=O)N[C@@H](CC(N)=O)C(=O)N[C@@H](CSSC[C@@H](C(N)=O)NC1=O)C(=O)N[C@@H](CO)C(=O)N[C@@H](CO)C(=O)N[C@@H](CCCCN)C(=O)N[C@@H](Cc1c[nH]c3ccccc13)C(=O)N2 | Scn4a | sodium current, blocker, two-electrode voltage clamp | Xenopus oocytes | 1 µM, 20 min, steady state | – | block | 71 ± 4% |

Repeated from above:
| SMILES | target | test | system | setting | how to read | quantity | value |
| --- | --- | --- | --- | --- | --- | --- | --- |
| CC(=O)N[C@@H](Cc1c[nH]cn1)C(=O)N[C@@H](CC(=O)O)C(=O)NCC(=O)N[C@@H](CC(C)C)C(=O)N[C@@H](Cc1cc(=O)oc2cc(OP(=O)(O)O)ccc12)C(=O)N[C@@H](CCC(N)=O)C(=O)NCC(=O)N[C@@H](CC(C)C)C(=O)N[C@@H](CO)C(=O)N[C@H](C(=O)N[C@@H](C)C(=O)N[C@H](C(=O)N[C@@H](CCCCN)C(=O)N[C@@H](CC(=O)O)C(=O)N[C@H](C(=O)N[C@@H](Cc1ccc(O)cc1)C(=O)N[C@@H](CC(=O)O)C(=O)N[C@@H](C)C(=O)N[C@@H](CC(C)C)C(=O)N[C@@H](Cc1c[nH]cn1)C(N)=O)[C@@H](C)O)[C@@H](C)O)[C@@H](C)O | PTPN3 | substrate | – | pH 6, TCR zeta-chain ITAM peptide | – | kcat/Km | 81700 M⁻¹ s⁻¹ |
